Measurements collected from several papers.
Protocols differ between the studies behind these lines. “And” joins repeats or separate records; there may be more than shown. ± marks the error that the study gave. ≈ marks a conversion by molar mass, not a printed value.

`C=C[C@]1(C)C[C@@H](OC(=O)CSc2ccc(NC(=O)c3ccco3)cc2)[C@]2(C)[C@H](C)CC[C@]3(CCC(=O)[C@H]32)[C@@H](C)[C@@H]1O` — result for “air sac lesion score”: 2 and 1 and 0 (Mycoplasma gallisepticum; infected chickens; intramuscular, 80 mg/kg daily x3, scale 0 to 4; direction not given).
`O=C(O)c1ccc(O)c(O)c1` — result for “pcaH mRNA level”: “increased” (Streptomyces coelicolor; RT-PCR; 2 mM, 1 h).
The inhibition of `O=C(O)c1ccc(C(c2c[nH]c(=O)[nH]c2=O)c2c[nH]c(=O)[nH]c2=O)cc1` is reported as 16% (Human immunodeficiency virus 1; viral replication, inhibitor, ELISA; 1 µg/mL).
`CC1=N[C@H](C)Cc2c(-c3ccc(Cl)cc3)ccc(O)c21` gave an IC50 of 22000 nM (Plasmodium falciparum; parasite growth, SYBR Green; NF54; blood stage).
`C[C@@H](CO)C(=O)OCCc1ccc(O)cc1` gave an inhibition of 19.6 ± 7.04% (Zika virus; viral replication, CCK-8; Vero C1008; 10 µM, 96 h).
For `Cc1ccc(Nc2n[nH]c3nc(-c4ccccc4)nc(N)c23)cc1`, the IC50 was 10 nM (rhinovirus B42; viral cytopathic effect; HeLa).
The IC50 of `COCCN(C)CC(=O)NC(Cc1ccc(-c2ccccc2)cc1)B(O)O` (stereo not shown) is reported as 110 nM (Plasmodium berghei; exoerythrocytic infection; HepG2, liver stage; 48 h).
The inhibition of `O=c1[nH]cc(C(c2ccc([N+](=O)[O-])cc2)c2c[nH]c(=O)[nH]c2=O)c(=O)[nH]1` is reported as 43% (Human immunodeficiency virus 1; viral replication, inhibitor, ELISA; 1 µg/mL).
`COc1ccc(Nc2n[nH]c3nc(-c4ccccc4)nc(N)c23)cc1` has an IC50 of 5110 nM (coxsackievirus B3; viral cytopathic effect; HeLa).
`COc1cc(O)c(-c2cc(-c3cc(-c4c(O)cc(OC)c5c4C[C@@H](C)N[C@@H]5C)c4cc(C)cc(OC)c4c3O)c(O)c3c(OC)cc(C)cc23)c2c1[C@@H](C)N[C@H](C)C2` has an IC50 of 49.2 ± 2.1 nM (Plasmodium falciparum; asexual parasite growth, SYBR Green I; clinical isolate SB_04, Malawi).
`COC1C=COC2(C)Oc3c(C)c(O)c4c(c3C2=O)C2=NC3(CCN(CC(C)C)CC3)NC2=C(NC(=O)C(C)=CC=CC(C)C(O)C(C)C(O)C(C)C(OC(=O)Nc2cccnn2)C1C)C4=O` (stereo not shown) has an IC90 of 103 nM (Mycobacteroides abscessus; bacterial growth; subsp. abscessus M9 clinical isolate).
For `COc1cc(Nc2n[nH]c3nc(-c4ccccc4)nc(N)c23)cc(OC)c1OC`, the IC50 was 2230 nM (coxsackievirus B3; viral cytopathic effect; HeLa).
`COc1cccc2c(-c3ccc(O)c4c3C[C@@H](C)N[C@@H]4C)c(C)cc(O)c12` gave an IC50 of 16.3 ± 3 nM (Plasmodium falciparum; asexual parasite proliferation, SYBR Green I fluorescence; HB3).
For `Nc1nc(-c2cccc(C(F)(F)F)c2)nc2[nH]nc(Nc3ccccc3)c12`, the IC50 was 8100 nM (coxsackievirus B3; viral cytopathic effect; HeLa).
The inhibition of `O=c1[nH]cc(C(c2ccc(Br)cc2)c2c[nH]c(=O)[nH]c2=O)c(=O)[nH]1` is reported as 22% (Human immunodeficiency virus 1; viral replication, inhibitor, ELISA; 1 µg/mL).
The IC50 of `Cc1ccc(-c2nc(N)c3c(Nc4ccccc4)n[nH]c3n2)cc1` is reported as 80 nM (rhinovirus B42; viral cytopathic effect; HeLa).
For `Nc1ncnc2c1ncn2[C@@H]1O[C@H](CSCc2cccc(C(=O)O)c2)[C@@H](O)[C@H]1O`, inhibition read “no inhibition” (Murine coronavirus; viral replication, outcome no inhibition; A59; 200 µM).
For `Oc1ccc(-c2cccc3ccccc23)c2c1C=NCC2`, the IC50 was 1420 nM (Plasmodium falciparum; parasite growth, SYBR Green; NF54; blood stage).
With `CN(C)c1ccc(C(c2c[nH]c(=O)[nH]c2=O)c2c[nH]c(=O)[nH]c2=O)cc1` the inhibition was 7% (Human immunodeficiency virus 1; viral replication, inhibitor, ELISA; 1 µg/mL).
`CNCc1ccc2c(c1)N(C(=O)OCc1c(F)c(F)c(F)c(F)c1F)[C@H](CNC(=N)N)[C@H]2NC(=O)C(=O)Nc1ccc(Cl)c(F)c1` has an IC80 of 4010 nM (HIV-1; pseudovirus infection; TZM-bl, clade G, X1632_S2_B10).
For `Nc1nc(-c2ccc(Cl)cc2)nc2[nH]nc(Nc3ccc(F)cc3)c12`, the IC50 was 130 nM (rhinovirus B42; viral cytopathic effect; HeLa).
For `CC[C@H](C)[C@H](NC(=O)[C@H](Cc1ccc(O)cc1)NC(=O)[C@H](CCC(=O)O)NC(=O)CNC(=O)[C@H](CCC(=O)O)NC(=O)[C@H](CCCCN)NC(=O)[C@H](CCCCN)NC(=O)[C@H](CC(=O)O)NC(=O)[C@H](Cc1c[nH]cn1)NC(=O)[C@H](Cc1c[nH]cn1)NC(=O)[C@H](Cc1c[nH]cn1)NC(=O)[C@H](Cc1c[nH]cn1)NC(=O)[C@H](Cc1c[nH]cn1)NC(=O)[C@H](Cc1c[nH]cn1)NC(=O)[C@H](Cc1c[nH]cn1)NC(=O)[C@H](Cc1c[nH]cn1)NC(=O)[C@H](Cc1c[nH]cn1)NC(=O)[C@@H](N)Cc1c[nH]cn1)C(=O)N[C@@H](CCCCN)C(=O)N[C@@H](CC(C)C)C(=O)N[C@@H](CCCCN)C(=O)N[C@H](C(=O)N[C@H](C(=O)NCC(=O)N[C@@H](CCC(N)=O)C(=O)N[C@@H](CC(=O)O)C(=O)N[C@@H](CO)C(=O)N[C@@H](CO)C(=O)N[C@@H](CCC(=O)O)C(=O)N[C@H](C(=O)N[C@@H](Cc1c[nH]cn1)C(=O)N[C@@H](Cc1ccccc1)C(=O)N[C@@H](CCCCN)C(=O)N[C@H](C(=O)N[C@@H](CCCCN)C(=O)N[C@@H](CCSC)C(=O)N[C@H](C(=O)N[C@H](C(=O)N[C@@H](Cc1c[nH]cn1)C(=O)N[C@@H](CC(C)C)C(=O)N[C@@H](CCCCN)C(=O)N[C@@H](CCCCN)C(=O)N[C@@H](CC(C)C)C(=O)N[C@@H](CCCCN)C(=O)N[C@@H](CCC(=O)O)C(=O)N[C@@H](CO)C(=O)N[C@@H](Cc1ccc(O)cc1)C(=O)N[C@@H](CS)C(=O)N[C@@H](CCC(N)=O)C(=O)N[C@@H](CCCNC(=N)N)C(=O)N[C@@H](CCC(N)=O)C(=O)O)[C@@H](C)O)[C@@H](C)O)C(C)C)[C@@H](C)CC)[C@@H](C)CC)C(C)C`, “tyrosine hydroxylase level” read “increased” (Drosophila melanogaster; immunoblot; head; 120 µM, 15 days old).
`Cc1cccc(Nc2n[nH]c3nc(-c4ccccc4)nc(N)c23)c1` gave an IC50 of 60 nM (coxsackievirus B3; viral cytopathic effect; HeLa).
`COC1C=COC2(C)Oc3c(C)c(O)c4c(c3C2=O)C2=NC3(CCN(CC(C)C)CC3)NC2=C(NC(=O)C(C)=CC=CC(C)C(O)C(C)C(O)C(C)C(OC(=O)c2cccnc2)C1C)C4=O` (stereo not shown) has an MBC of 2 µM (≈ 1.82 µg/mL) (Mycobacteroides abscessus; ATCC 19977, caseum surrogate; 5 d, non-replicating).
For `Cc1cccc2c1N(C(=O)n1ccnn1)CC2`, the germination rate was 10% and 19.2% and 25.8% and 7.4% and 27.6% and 32.1% (Arabidopsis thaliana; kai2 mutant, seeds; 100 µM).
For `Cc1ncsc1-c1ccc(CNC(=O)[C@@H]2C[C@@H](O)CN2C(=O)[C@@H](NC(=O)CN2CCN(C3CN(CCNC(=O)C[C@@H]4N=C(c5ccc(Cl)cc5)c5c(sc(C)c5C)-n5c(C)nnc54)C3)CC2)C(C)(C)C)cc1`, the protein level was 12.2% and 13.5% and 11% and 12.3% (Spodoptera frugiperda; degrader, targeted LC-MS, item: BRD3; Sf9; 0.1 µM).
The inhibition of `C[C@H](O)CC(=O)OCCc1ccc(O)cc1` is reported as 0% (Zika virus; viral replication, CCK-8; Vero C1008; 10 µM, 96 h).
`C=C(NC(=O)c1csc(-c2nc3c(cc2O)-c2nc(cs2)C(=O)NC(C(C)O)C(=O)NC(=C(C)OC)c2nc(cs2)C(=O)NC2c4nc(cs4)C(=O)NC(COC(=O)c4c5c6c(cccc6n4O)COC(=O)C(OC4CC(C)(O)C(N(C)C)C(C)O4)C2OC5)c2nc-3cs2)n1)C(N)=O` (stereo not shown) gave an MIC90 of 0.0312 µg/mL (≈ 0.0217 µM) (Staphylococcus aureus; broth microdilution; methicillin-susceptible isolates).
The inhibition of `Cc1ccc(C(c2c[nH]c(=O)[nH]c2=O)c2c[nH]c(=O)[nH]c2=O)cc1` is reported as 21% (Human immunodeficiency virus 1; viral replication, inhibitor, ELISA; 1 µg/mL).
`CC1(C)Cc2c(-c3cccc4ccccc34)ccc(O)c2C=N1` has an IC50 of 1630 nM (Plasmodium falciparum; parasite growth, SYBR Green; NF54; blood stage).
For `CN(Cc1ccc(C2(C(F)(F)F)CCC2)cc1)Cc1cccc2ccccc12`, the inhibition zone was 15.8 mm (Trichophyton mentagrophytes; microbial growth, disc diffusion; ATCC18748; 0.008 µg/mL, 72 h).
`C#CCNc1c2c([nH]c(=O)c1C(=O)OCC)CCC2` has an EC50 of greater than 100000 nM (Human immunodeficiency virus 1; viral replication, inhibitor; IIIB; 72 h).
With `CC(C)c1ccc(Nc2n[nH]c3nc(-c4ccccc4)nc(N)c23)cc1` the IC50 was 30 nM (rhinovirus B42; viral cytopathic effect; HeLa).
Under “mean female worms recovered”, `CC(C)(C)NCC(SS(=O)(=O)O)c1ccccc1` (stereo not shown) is recorded as 1.4 worms per mouse (Schistosoma mansoni; infected mice; 600 mg/kg single, dosed day 15, perfusion day 44).

Some of these lines once more:
For `CC[C@H](C)[C@H](NC(=O)[C@H](Cc1ccc(O)cc1)NC(=O)[C@H](CCC(=O)O)NC(=O)CNC(=O)[C@H](CCC(=O)O)NC(=O)[C@H](CCCCN)NC(=O)[C@H](CCCCN)NC(=O)[C@H](CC(=O)O)NC(=O)[C@H](Cc1c[nH]cn1)NC(=O)[C@H](Cc1c[nH]cn1)NC(=O)[C@H](Cc1c[nH]cn1)NC(=O)[C@H](Cc1c[nH]cn1)NC(=O)[C@H](Cc1c[nH]cn1)NC(=O)[C@H](Cc1c[nH]cn1)NC(=O)[C@H](Cc1c[nH]cn1)NC(=O)[C@H](Cc1c[nH]cn1)NC(=O)[C@H](Cc1c[nH]cn1)NC(=O)[C@@H](N)Cc1c[nH]cn1)C(=O)N[C@@H](CCCCN)C(=O)N[C@@H](CC(C)C)C(=O)N[C@@H](CCCCN)C(=O)N[C@H](C(=O)N[C@H](C(=O)NCC(=O)N[C@@H](CCC(N)=O)C(=O)N[C@@H](CC(=O)O)C(=O)N[C@@H](CO)C(=O)N[C@@H](CO)C(=O)N[C@@H](CCC(=O)O)C(=O)N[C@H](C(=O)N[C@@H](Cc1c[nH]cn1)C(=O)N[C@@H](Cc1ccccc1)C(=O)N[C@@H](CCCCN)C(=O)N[C@H](C(=O)N[C@@H](CCCCN)C(=O)N[C@@H](CCSC)C(=O)N[C@H](C(=O)N[C@H](C(=O)N[C@@H](Cc1c[nH]cn1)C(=O)N[C@@H](CC(C)C)C(=O)N[C@@H](CCCCN)C(=O)N[C@@H](CCCCN)C(=O)N[C@@H](CC(C)C)C(=O)N[C@@H](CCCCN)C(=O)N[C@@H](CCC(=O)O)C(=O)N[C@@H](CO)C(=O)N[C@@H](Cc1ccc(O)cc1)C(=O)N[C@@H](CS)C(=O)N[C@@H](CCC(N)=O)C(=O)N[C@@H](CCCNC(=N)N)C(=O)N[C@@H](CCC(N)=O)C(=O)O)[C@@H](C)O)[C@@H](C)O)C(C)C)[C@@H](C)CC)[C@@H](C)CC)C(C)C`, “tyrosine hydroxylase level” read “increased” (Drosophila melanogaster; immunoblot; head; 120 µM, 15 days old).
`Cc1cccc(Nc2n[nH]c3nc(-c4ccccc4)nc(N)c23)c1` gave an IC50 of 60 nM (coxsackievirus B3; viral cytopathic effect; HeLa).
`COC1C=COC2(C)Oc3c(C)c(O)c4c(c3C2=O)C2=NC3(CCN(CC(C)C)CC3)NC2=C(NC(=O)C(C)=CC=CC(C)C(O)C(C)C(O)C(C)C(OC(=O)c2cccnc2)C1C)C4=O` (stereo not shown) has an MBC of 2 µM (≈ 1.82 µg/mL) (Mycobacteroides abscessus; ATCC 19977, caseum surrogate; 5 d, non-replicating).
